Assay results pooled from the literature.
Each numbered part is a random draw from the data of one study; scales do not carry over between parts. Positions count from the first letter of the parent shown.

Study 1
Target: UBE2Z UBC core domain (UniProt Q9H832)
Chain of UniProt Q9H832 (whole entry, looked up): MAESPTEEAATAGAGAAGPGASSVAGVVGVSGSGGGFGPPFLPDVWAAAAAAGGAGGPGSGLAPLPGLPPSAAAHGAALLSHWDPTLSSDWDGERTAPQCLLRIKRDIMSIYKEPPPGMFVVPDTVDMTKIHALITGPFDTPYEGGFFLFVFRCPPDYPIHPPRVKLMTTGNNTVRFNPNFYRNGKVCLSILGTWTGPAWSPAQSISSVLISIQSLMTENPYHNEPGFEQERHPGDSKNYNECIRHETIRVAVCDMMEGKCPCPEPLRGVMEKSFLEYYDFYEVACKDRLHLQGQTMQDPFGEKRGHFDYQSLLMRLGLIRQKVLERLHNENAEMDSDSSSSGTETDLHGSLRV
Method: yeast two-hybrid
Sample: yeast
Notes: mostly zero background
Relative to: not given
Direction: higher = stronger interaction
B1: RNF32 RING domain (UniProt Q9H0A6); chain VQALRRETHECSICLAPLSAAGGQRVGAGRRSREMALLSCSHVFHHACLLALEEFSVGDRPPFHACPLCRSCYQKKILEC
B2: MDM2 RING domain (UniProt Q00987); chain TQDKEESVESSLPLNAIEPCVICQGRPKNGCIVHGKTGHLMACFTCAKKLKKRNKPCPVCRQPIQMIVLTYFP
B3: CBLL1 RING domain (UniProt Q75N03); chain GEKDDTPVHFCDKCGLPIKIYGRMIPCKHVFCYDCAILHEKKGDKMCPGCSDPVQRIEQCT
B4: RNF115 RING domain (UniProt Q9Y4L5); chain TQEQVDMGLECPVCKEDYTVEEEVRQLPCNHFFHSSCIVPWLELHDTCPVCRKSLNGEDSTR
B5: RNF10 RING domain (UniProt Q8N5U6); chain VRICSHEVPSCPICLYPPTAAKITRCGHIFCWACILHYLSLSEKTWSKCPICYSSVHKKDLKS
B6: NHLRC1 RING domain (UniProt Q6VVB1); chain MREAEISLLECKVCFEKFGHRQQRRPRNLSCGHVVCLACVAALAHPRTLALECPFCRRACRGCDTSD
B7: TRIM68 RING domain (UniProt Q6AZZ1); chain LVEAIVEEVACPICMTFLREPMSIDCGHSFCHSCLSGLWEIPGESQNWGYTCPLCRAPVQPRNLRP
B8: TRIM74 RING domain (UniProt Q86UV6); chain SLLELEDWLQCPICLEVFKESLMLQCGHSYCKGCLVSLSYHLDTKVRCPMCWQVVDGSSSLP
B9: ARIH1 RING domain (UniProt Q9Y4X5); chain NTRSSAQDMPCQICYLNYPNSYFTGLECGHKFCMQCWSEYLTTKIMEEGMGQTISCPAHGCDILVDDNTVM
B10: TRIM28 RING domain (UniProt Q13263); chain GAEALELLEHCGVCRERLRPEREPRLLPCLHSACSACLGPAAPAAANSSGDGGAAGDGTVVDCPVCKQQCFSKDIVE
Molecule	lacZ reporter activity
B1 (RNF32 RING domain)	0
B2 (MDM2 RING domain)	7470
PLRRLQEEKLCKICMDRHIAVVFIPCGHLVTCKQCAEAVDRCPMCSAVIDFKQRVF (BIRC8 RING domain (UniProt Q96P09))	0
FLSKVEETFQCICCQELVFRPITTVCQHNVCKDCLDRSFRAQVFSCPACRYDLGRSYAMQ (UHRF1 RING domain (UniProt Q96T88))	0
B3 (CBLL1 RING domain)	0
B4 (RNF115 RING domain)	0
AAQLLEEKLTCAICLGLYQDPVTLPCGHNFCGACIRDWWDRCGKACPECREPFPDGAELR (TRIM65 RING domain (UniProt Q6PJ69))	8290
EDVLSKDAGECAICLEELQQGDTIARLPCLCIYHKGCIDEWFEVNRSCPEHPSD (ZNRF2 RING domain (UniProt Q8NHG8))	0
GSEEEEIPFRCFICRQAFQNPVVTKCRHYFCESCALEHFRATPRCYICDQPTGGIFNPA (RNF113B RING domain (UniProt Q8IZP6))	7100
B5 (RNF10 RING domain)	0
B6 (NHLRC1 RING domain)	0
B7 (TRIM68 RING domain)	0
B8 (TRIM74 RING domain)	0
B9 (ARIH1 RING domain)	0
MEEMEEELKCPVCGSFYREPIILPCSHNLCQACARNILVQTPESESPQSHRAAGSGVSDY (TRIM9 RING domain (UniProt Q9C026))	0
B10 (TRIM28 RING domain)	0

Study 2
Target: CEBPA, bZIP domain (human)
Method: DHFR protein complementation
Sample: yeast
Notes: single substitutions, most at no-binding floor
Relative to: wild-type JUN-FOS pair
Direction: higher = stronger binding
Starting sequence: JUN, bZIP domain (human); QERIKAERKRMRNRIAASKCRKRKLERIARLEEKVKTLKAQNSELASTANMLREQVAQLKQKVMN; partner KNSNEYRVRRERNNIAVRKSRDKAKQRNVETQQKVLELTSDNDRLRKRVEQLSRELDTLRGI
Variant	binding fitness [natural log]
N42E	-1.43
R30W	-1.47
I28Y	-1.47
L31D	-1.44
Q41N	-1.53
E33V	-1.38
K39R	-1.42
E54Q	-0.977
A57G	-1.4
R30P	-1.45
E32Q	-1.53
S43I	-1.43
Q41H	-1.34
M51A	-1.39
S43H	-1.47

Study 3
Target: RNA binding protein fox-1 homolog 2, RRM domain, GST-SBP tag (RBFOX2, Homo sapiens, UniProt O43251-10, residues 100-194)
Method: RNA Bind-n-Seq
Form: RNA
Sample: in vitro
Concentration: 365 nM
Notes: natural RNA segment, single round, ends assumed
Relative to: no-protein control
Direction: higher = stronger binding
Shared flanks, not repeated: GGGAGUUCUACAGUCCGACGAUC … UGGAAUUCUCGGGUGCCAA
Target sequence (chain): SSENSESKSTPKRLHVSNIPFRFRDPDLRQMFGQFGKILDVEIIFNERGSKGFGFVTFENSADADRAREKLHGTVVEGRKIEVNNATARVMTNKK
Strand	RBNS enrichment (R)
GACUCCAGCCACCACCCACUGACGUUAUUUUUAUACUAGAUGAAGAGGUCAACAGCAGGCAUGGGGAGCCGAGUCUUCUGUGCUCAGGUCCUCACGCUGCAGACGCCCCC	0.29
AAUAUUCUGAAAGAUAAUCUUCCUUUGGCUCAUUCUAUGACAUGUACAACUCUUAAGAAAGCCAUACUUAAUGGUGAUGUUAUUUUUUAGAUCCUAUUGUGAUUUGUAUG	0.343
UCUAGGCAGCGAGUGCAGGUGACAACGGUGGUCUAGGGAGAGUUACUGGUAUGGAACACAGACAUGGCGGGGCCCCAGAAGGCCUUUGUAACUGUUUCUUCAACUCUUGC	0.484
AAAGGCAGCAAGCAGAUAGACUCAAGGUGUGUGAAAGAUGUUAUACACCAGGAGCUGCCACUGCAUGUCCCAACCAGACUGUGUCUGUCUGUGUCUGCAUGUAAGAGUGA	11.4
GGAUGGGGGACCUCCACUGGUGACAGAGAAGACACCAGGGUUUGGGGGAUGCCUGGGACUUUCCUCCGGCCUUUUGUAUUUUUAUUUUUGUUCAUCUGCUGCUGUUUACA	1.28
UUUCACUCCCUCUUGGUUUUUAUCAAAUUUGCCAUGACAUUUCAUCUGGGUGGUCUGAAUAUUAAAGCUCUUCAUUUCUGGAGAUGGGGCAGCAGGUGGCUCUUCUGCUG	0.645
GGCUACAUUUGAGGACAGGAAUAUGUUGAGCCUGAUUUUCCUGGUGUGUGUAAAAUAUUUCCUAGGAAUAAAUUAGGCACUUUUUAGAAGCAAUGUUAAAUCAUUCAGGU	0.522
UGAAGCUAGAGUGAACUCAUGUGCCAGCAGAGGCCUCCUCUCUUUAUAGCAAUUCUGACAAUAGGUUUGUUUGUUUGUUUGUUUGUUUUUACAAACUCAAGAAAAACAGA	0.312
AGAACAAAACAAAACAAAACACCACAAACCAAAAACAUCUGGGCUAGCCAGGCAUGAUUGCAAUGUCUACAGGCCCAGUUCAUGAGAGGCAGAGACAGGAAGACCGCCGA	0.565
GUUUUAACAGGUCAUGUACUACGUUGUUGUUUUCAUUUCUGUUAUAAGUAAAACUAAAAGCACAGAAUGGUGGGAAAGGGGCUAUAAUGUGGUUCAUUAAUAAUGUUAGC	4.32
AAACUAGAAGUUGAGAUUGUAAAACUGCUUUAAGAACUUUAAAGAAAUGAAUAUUUGAUCUCUGAUUAAUUUUUGAGACUUCUAAAUCUCUUCUUGUUUUAAGUUUCUUG	0.466
UCUGCUGGUGAAGUCUGUGUCCAAGGCAGGGGCCAGCAGAAACUCCAGCCUGCUGUCUACCAAAGGACUGUUCCCAGACCCUGUCUUUACCCUUCCCUUUUAAAGUCCCU	1.43

Study 4
Target: Interferon regulatory factor 5, full length, phosphomimetic (IRF5, Homo sapiens, UniProt Q13568-2, residues 1-514, K96S/S451D/S453D/S456D/S462D)
Method: protein-binding microarray
Form: double-stranded DNA, one strand shown
Sample: in vitro
Concentration: 250 nM
Notes: 60-bp whole probe
Together with: salmon DNA 0.4 mg/ml
Relative to: random background probes
Direction: higher = stronger binding
Shared flanks, not repeated: GCCTAGCAC … GTCTTGATTCGCTTGACGCTGCTG
Strand	log fluorescence [z-score]
GACGGTATCGTACTGCTGACGTGCTAG	0.416
TCATGCATGTTTTTGACACTGTGCTAG	0.4
TTAGATTTCGGGACTGCATTAGTGCTA	2.83
TCAATTTCAGTTTTCTTACTGTGCTAG	4.57
GACGATATGGGGTATCGAGACGTGCTA	0.587
TGAGGTTTCGGTATCGGTTAGTGCTAG	10.7
TCATTTTTTTTTTTCTGACTGTGCTAG	1.12
TTAGGTTGCGGACTGGGTTAGTGCTAG	-0.172
CACGGTCTCGGTATCGGGACGTGCTAG	0.947
GACGGACTGGACAGTGGGGACGTGCTA	-0.538
TTAGAACTGGGGTATCGATTGGTGCTA	2.14
GTGTGTTTGTGTGTGTATGTGTGCTAG	0.0897
GACGTTATCCTACTGCTGACGTGCTAG	0.27
TCAACATTGCACAATCTTACTGTGCTA	0.444
TTAGATTTCCTTTCCCTTTAGTGCTAG	1.9
TTTTATGAAGGCCGGGGAGGGTGCTAG	0.767
TTAGATTTCGGGACTGGATCAGTGCTA	2.69
ACTCAGTAACATTATTGTAGGTGCTAG	0.111
TTAGGTTTCGGAATCGGTTAGTGCTAG	7.49
TTAGAACTGAGCTTCGATTAGTGCTAG	0.683
GACTGACTGCTTTTCCTGACGTGCTAG	0.0264
GACGGTCTCGCTTTCGGGACGTGCTAG	3.17
TAAGGTCTCGGTTTCGGTTAGTGCTAG	8.54
TATTCCCCATCACTCACTCTGTGCTAG	1.06
GACGGAGTGCTACTGCTGACGTGCTAG	-0.458

Some of these lines once more (study 3):
Strand	RBNS enrichment (R)
UGAAGCUAGAGUGAACUCAUGUGCCAGCAGAGGCCUCCUCUCUUUAUAGCAAUUCUGACAAUAGGUUUGUUUGUUUGUUUGUUUGUUUUUACAAACUCAAGAAAAACAGA	0.312
GUUUUAACAGGUCAUGUACUACGUUGUUGUUUUCAUUUCUGUUAUAAGUAAAACUAAAAGCACAGAAUGGUGGGAAAGGGGCUAUAAUGUGGUUCAUUAAUAAUGUUAGC	4.32
UUUCACUCCCUCUUGGUUUUUAUCAAAUUUGCCAUGACAUUUCAUCUGGGUGGUCUGAAUAUUAAAGCUCUUCAUUUCUGGAGAUGGGGCAGCAGGUGGCUCUUCUGCUG	0.645
AAAGGCAGCAAGCAGAUAGACUCAAGGUGUGUGAAAGAUGUUAUACACCAGGAGCUGCCACUGCAUGUCCCAACCAGACUGUGUCUGUCUGUGUCUGCAUGUAAGAGUGA	11.4
